Earlier results that unrelated publications cite.
Compare with care: the assays were run in different laboratories. Numbers after ± are the reported error.
Sequence of UniProt Q9UK32 (whole entry, looked up): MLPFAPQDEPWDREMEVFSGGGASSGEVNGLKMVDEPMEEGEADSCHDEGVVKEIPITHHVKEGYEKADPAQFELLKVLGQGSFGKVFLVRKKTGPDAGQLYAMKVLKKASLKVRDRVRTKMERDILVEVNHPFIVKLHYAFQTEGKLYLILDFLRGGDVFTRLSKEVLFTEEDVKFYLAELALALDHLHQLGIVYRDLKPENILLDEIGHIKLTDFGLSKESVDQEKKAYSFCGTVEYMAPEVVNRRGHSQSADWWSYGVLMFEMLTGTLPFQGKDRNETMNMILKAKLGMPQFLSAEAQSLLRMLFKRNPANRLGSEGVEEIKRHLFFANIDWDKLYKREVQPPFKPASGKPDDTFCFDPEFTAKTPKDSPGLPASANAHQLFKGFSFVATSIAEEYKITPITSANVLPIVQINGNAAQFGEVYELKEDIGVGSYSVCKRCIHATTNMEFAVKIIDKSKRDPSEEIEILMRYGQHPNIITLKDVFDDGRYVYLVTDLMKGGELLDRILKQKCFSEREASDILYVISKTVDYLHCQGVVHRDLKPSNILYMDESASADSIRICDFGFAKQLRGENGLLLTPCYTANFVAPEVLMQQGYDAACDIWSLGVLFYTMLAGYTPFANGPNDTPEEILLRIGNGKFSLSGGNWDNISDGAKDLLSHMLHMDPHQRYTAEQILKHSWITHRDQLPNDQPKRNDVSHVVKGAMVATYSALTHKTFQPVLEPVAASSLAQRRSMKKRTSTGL

| SMILES | tested on | assay | test system | setting | how to read | quantity | result |
| --- | --- | --- | --- | --- | --- | --- | --- |
| O=C(NCCN1CCOCC1)c1ccc(Cl)cc1 | HepG2 | mitochondrial membrane potential | – | concentration not given, Tox21 | – | activity outcome | inactive |
| COc1cc2c(Oc3ccc4[nH]c(C)cc4c3F)ccnc2cc1OCC1(N)CC1 | – | – | human, fasted | oral, 5 mg | – | MRT(0-t) | 86 ± 6.5 h |
| CC#CCn1c(N2CCC[C@@H](N)C2)nc2c1c(=O)n(Cc1nc(C)c3ccccc3n1)c(=O)n2C | HepG2 | mitochondrial membrane potential | – | concentration not given, Tox21 | – | activity outcome | inactive |
| CC[C@H](CO)N(CCN(N=O)[C@H](CC)CO)N=O | Salmonella typhimurium | – | TA98 and TA100 | concentration not given, pre-incubation, with or without rat S9 | – | Ames test result | negative |
| C=C[C@@H]1C[C@]1(NC(=O)[C@@H]1C[C@@H]2CN1C(=O)[C@H](C(C)(C)C)NC(=O)O[C@@H]1C[C@H]1CCCCCc1nc3ccc(OC)cc3nc1O2)C(=O)NS(=O)(=O)C1CC1 | rat P-glycoprotein | – | LLC-PK1 cells transfected with P-glycoprotein | 1 µM | reference: B-A over A-B Papp | efflux ratio | ~30 |
| CS(=O)(=O)c1ccc(C(=O)Nc2ccc(Cl)c(-c3ccccn3)c2)c(Cl)c1 | HepG2 | mitochondrial membrane potential | – | concentration not given, Tox21 | – | activity outcome | inactive |
| CC(O)c1cc(C(=O)N[C@@H](C)Cn2ccc(-c3ccc(C#N)c(Cl)c3)n2)[nH]n1 (stereo partly shown) | OATP1B3 (SLCO1B3) OATP1B3 | – | – | literature geometric mean | – | IC50 | 14000 nM |
| CC1(C)S[C@@H]2[C@H](NC(=O)[C@H](N)c3ccccc3)C(=O)N2[C@H]1C(=O)O | Klebsiella pneumoniae | – | clinical isolate RKI-No_328/16 | – | – | MIC | > 16 µg/mL |
| [N-]=[N+]=N[C@]1(CO)O[C@@H](n2ccc(N)nc2=O)[C@@H](F)[C@@H]1O | Hut/CCR5 | cytotoxicity | – | – | – | CC50 | 340 nM |
| C[C@H]1COCCN1c1nc(-c2cnc(N)cc2C(F)F)nc(N2CCOCC2)n1 | K562 | – | – | – | – | GI50 | 1060 nM |
| CNCc1cn(S(=O)(=O)c2cccc(F)c2)c(-c2ccc(F)cc2F)c1OC | CYP2A6 | enzyme activity | – | – | – | IC50 | > 50000 nM |
| CN(C)C/C=C/C(=O)Nc1cc2c(Nc3ccc(F)c(Cl)c3)ncnc2cc1O[C@H]1CCOC1 | Caco-2 | – | – | 300 µM | – | Papp A to B | 12.1 ± 3.43 ×10⁻⁶ cm/s |
| COc1ccc(Cl)cc1C(=O)NCCc1ccc(S(=O)(=O)NC(=O)NC2CCCCC2)cc1 | HepG2 | mitochondrial membrane potential | – | concentration not given, Tox21 | – | activity outcome | inactive |
| Nc1cc(C(F)(F)F)c(-c2nc(N3CCOCC3)nc(N3CCOCC3)n2)cn1 | Ribosomal protein S6 kinase alpha-6, C-terminal kinase domain (RPS6KA6, Homo sapiens, UniProt Q9UK32) | enzyme activity | – | 10 µM | reference: untreated | remaining activity | 100% |
| C[Si]1(C)O[Si](C)(C)O[Si](C)(C)O[Si](C)(C)O1 | Poecilia reticulata | – | – | concentration not given | – | bioconcentration factor | 1090 L/kg wet weight |
| COc1cc(NS(C)(=O)=O)ccc1Nc1c2ccccc2nc2ccccc12 | HepG2 | mitochondrial membrane potential | – | concentration not given, Tox21 | – | mitochondrial toxicity | active |
| CNC(C)C1CCC(N)C(OC2C(N)CC(N)C(OC3OCC(C)(O)C(NC)C3O)C2O)O1 (stereo not shown) | Klebsiella pneumoniae | – | clinical isolate RKI 373/16-1 | – | – | MIC | ≤ 0.5 µg/mL |
| COc1cccc2c1C(=O)c1c(O)c3c(c(O)c1C2=O)C[C@@](O)(C(=O)CO)C[C@@H]3O[C@H]1C[C@H](N)[C@H](O)[C@H](C)O1 | COLO 205 | cell viability | – | – | – | IC50 | 850 nM |
| CN(C)C(=O)c1cc2cnc(Nc3ccc(N4CCNCC4)cn3)nc2n1C1CCCC1 | – | – | human | 600 mg single dose, together with: rifampicin 600 mg daily for 14 days | reference: compound alone | decrease in AUCinf | 89% |

For quick reference, copied from above:
| SMILES | tested on | assay | test system | setting | how to read | quantity | result |
| --- | --- | --- | --- | --- | --- | --- | --- |
| CN(C)C/C=C/C(=O)Nc1cc2c(Nc3ccc(F)c(Cl)c3)ncnc2cc1O[C@H]1CCOC1 | Caco-2 | – | – | 300 µM | – | Papp A to B | 12.1 ± 3.43 ×10⁻⁶ cm/s |
| CC#CCn1c(N2CCC[C@@H](N)C2)nc2c1c(=O)n(Cc1nc(C)c3ccccc3n1)c(=O)n2C | HepG2 | mitochondrial membrane potential | – | concentration not given, Tox21 | – | activity outcome | inactive |
